Earlier results that unrelated publications cite.
Each line is one published result; not all experiments were run side by side.
Chain of UniProt Q8IVH8 (whole entry, looked up): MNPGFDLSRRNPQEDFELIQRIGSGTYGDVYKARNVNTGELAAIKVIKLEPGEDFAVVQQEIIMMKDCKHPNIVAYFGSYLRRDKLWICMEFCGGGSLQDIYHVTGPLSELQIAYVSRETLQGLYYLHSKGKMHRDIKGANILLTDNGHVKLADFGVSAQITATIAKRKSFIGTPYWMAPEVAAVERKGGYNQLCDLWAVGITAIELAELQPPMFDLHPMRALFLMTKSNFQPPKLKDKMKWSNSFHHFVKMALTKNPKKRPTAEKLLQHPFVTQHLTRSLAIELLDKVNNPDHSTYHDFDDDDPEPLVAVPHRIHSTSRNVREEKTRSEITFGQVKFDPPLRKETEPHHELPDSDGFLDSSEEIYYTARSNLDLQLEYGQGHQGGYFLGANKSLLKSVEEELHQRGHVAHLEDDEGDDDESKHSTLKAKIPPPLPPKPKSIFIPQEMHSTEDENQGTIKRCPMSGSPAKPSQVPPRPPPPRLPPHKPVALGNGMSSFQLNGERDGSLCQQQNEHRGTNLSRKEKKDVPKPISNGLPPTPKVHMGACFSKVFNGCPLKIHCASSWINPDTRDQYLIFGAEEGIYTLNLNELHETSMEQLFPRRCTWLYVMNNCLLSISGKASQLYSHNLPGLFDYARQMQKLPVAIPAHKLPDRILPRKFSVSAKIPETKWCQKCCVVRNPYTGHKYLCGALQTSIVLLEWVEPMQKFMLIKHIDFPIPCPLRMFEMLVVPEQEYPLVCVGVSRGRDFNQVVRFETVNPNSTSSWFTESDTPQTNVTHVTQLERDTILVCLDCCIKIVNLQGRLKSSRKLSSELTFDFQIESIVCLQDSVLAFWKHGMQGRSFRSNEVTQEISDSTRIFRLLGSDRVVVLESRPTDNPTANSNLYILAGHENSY

Structure (SMILES) = COc1cc(N2CCC(N3CCN(C)CC3)CC2)ccc1Nc1ncc(Cl)c(Nc2ccccc2P(C)(C)=O)n1; system = human; conditions = 180 mg; endpoint = AUC; value = 20300 ng·h/mL
Structure (SMILES) = Cc1cc2c(s1)Nc1ccccc1N=C2N1CCN(C)CC1; system = human; conditions = oral, 10 mg, day 1; endpoint = AUC; value = 230 ng·h/mL
Structure (SMILES) = O=C(C1CCCCC1)N1CC(=O)N2CCc3ccccc3[C@@H]2C1; system = human, plasma; conditions = oral, 60 mg/kg, orally dispersible tablet; endpoint = AUC; value = 523 ng·h/mL
Structure (SMILES) = OC(Cn1cncn1)(Cn1cncn1)c1ccc(F)cc1F; system = human; conditions = intravenous, 100 mg; endpoint = AUC; value = 56800 ng·h/mL
Structure (SMILES) = Cc1cn(-c2cc(NC(=O)c3ccc(C)c(Nc4nccc(-c5cccnc5)n4)c3)cc(C(F)(F)F)c2)cn1; system = human; conditions = 400 mg; endpoint = AUC; value = 17500 ng·h/mL
Structure (SMILES) = COc1ccc2[nH]c([S+]([O-])Cc3ncc(C)c(OC)c3C)nc2c1 (centres unmarked); system = human post-RYGB patients; conditions = oral tablet, 20 mg once daily, day 6, 1 months after surgery; endpoint = AUC; value = 688 ng·h/mL
Structure (SMILES) = CN(C)C/C=C/C(=O)Nc1cc2c(Nc3ccc(F)c(Cl)c3)ncnc2cc1O[C@H]1CCOC1; system = human; conditions = 40 mg; endpoint = AUC; value = 631 ng·h/mL
Structure (SMILES) = COCCCC/C(=N\OCCN)c1ccc(C(F)(F)F)cc1; system = human; conditions = oral, 100 mg single dose; endpoint = AUC; value = 805 ng·h/mL
Structure (SMILES) = Nc1cc(C(F)(F)F)c(-c2nc(N3CCOCC3)nc(N3CCOCC3)n2)cn1; target or system = Mitogen-activated protein kinase kinase kinase kinase 3 (MAP4K3, Homo sapiens, UniProt Q8IVH8); test = enzyme activity; conditions = 10 µM; how to read = reference: untreated; endpoint = remaining activity; value = 71%
Structure (SMILES) = CCC(C)n1ncn(-c2ccc(N3CCN(c4ccc(OCC5COC(Cn6cncn6)(c6ccc(Cl)cc6Cl)O5)cc4)CC3)cc2)c1=O (centres unmarked); system = human; conditions = intravenous, 100 mg; endpoint = AUC; value = 4300 ng·h/mL
Structure (SMILES) = O=C(c1cc(Cc2n[nH]c(=O)c3ccccc23)ccc1F)N1CCN(C(=O)C2CC2)CC1; system = human; conditions = oral, 100 mg tablet, single dose, together with: itraconazole 0 mg; endpoint = AUC; value = 14800 ng·h/mL

For quick reference, copied from above:
Structure (SMILES) = CN(C)C/C=C/C(=O)Nc1cc2c(Nc3ccc(F)c(Cl)c3)ncnc2cc1O[C@H]1CCOC1; system = human; conditions = 40 mg; endpoint = AUC; value = 631 ng·h/mL
